Assay results pooled from the literature.
Lines come from different studies, so protocols differ. ± gives the spread as reported.
LPAR2: Lysophosphatidic acid receptor 2 (LPAR2, Homo sapiens, UniProt Q9HBW0)
Sequence of UniProt Q9HBW0 (whole entry, looked up): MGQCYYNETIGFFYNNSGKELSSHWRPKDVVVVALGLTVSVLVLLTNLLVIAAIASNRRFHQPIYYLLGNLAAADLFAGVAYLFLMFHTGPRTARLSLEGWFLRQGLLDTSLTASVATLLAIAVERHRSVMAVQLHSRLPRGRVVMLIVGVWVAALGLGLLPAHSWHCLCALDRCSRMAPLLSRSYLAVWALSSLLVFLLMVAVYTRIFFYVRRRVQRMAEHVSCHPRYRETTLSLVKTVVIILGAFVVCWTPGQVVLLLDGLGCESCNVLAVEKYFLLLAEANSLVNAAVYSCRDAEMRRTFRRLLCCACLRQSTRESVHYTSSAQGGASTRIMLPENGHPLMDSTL
SCTR: Secretin receptor (SCTR, Homo sapiens, UniProt P47872)
Sequence of UniProt P47872 (whole entry, looked up): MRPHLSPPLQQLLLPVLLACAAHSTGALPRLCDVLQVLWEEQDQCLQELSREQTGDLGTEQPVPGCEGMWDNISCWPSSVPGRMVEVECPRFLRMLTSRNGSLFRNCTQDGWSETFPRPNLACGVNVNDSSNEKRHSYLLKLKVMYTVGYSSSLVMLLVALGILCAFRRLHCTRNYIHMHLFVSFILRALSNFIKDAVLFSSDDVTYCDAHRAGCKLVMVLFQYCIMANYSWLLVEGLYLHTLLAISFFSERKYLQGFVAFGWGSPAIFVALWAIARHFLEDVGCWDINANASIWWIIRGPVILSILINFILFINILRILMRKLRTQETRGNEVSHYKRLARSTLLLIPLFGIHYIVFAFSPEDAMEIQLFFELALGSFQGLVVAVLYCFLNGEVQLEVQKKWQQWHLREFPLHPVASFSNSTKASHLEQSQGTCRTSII
NMBR: Neuromedin-B receptor (NMBR, Homo sapiens, UniProt P28336)
Sequence of UniProt P28336 (whole entry, looked up): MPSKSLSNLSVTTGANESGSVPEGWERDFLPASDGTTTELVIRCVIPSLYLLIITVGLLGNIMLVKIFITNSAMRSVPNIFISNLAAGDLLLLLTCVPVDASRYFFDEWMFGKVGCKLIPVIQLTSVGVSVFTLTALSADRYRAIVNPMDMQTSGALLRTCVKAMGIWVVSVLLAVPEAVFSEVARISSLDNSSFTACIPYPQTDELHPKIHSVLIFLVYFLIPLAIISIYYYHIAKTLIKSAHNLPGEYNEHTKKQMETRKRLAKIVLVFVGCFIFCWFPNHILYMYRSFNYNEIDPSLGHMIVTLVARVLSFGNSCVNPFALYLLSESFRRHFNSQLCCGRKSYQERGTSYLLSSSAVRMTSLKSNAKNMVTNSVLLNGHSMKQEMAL
Sequence of UniProt Q86SQ4 (whole entry, looked up): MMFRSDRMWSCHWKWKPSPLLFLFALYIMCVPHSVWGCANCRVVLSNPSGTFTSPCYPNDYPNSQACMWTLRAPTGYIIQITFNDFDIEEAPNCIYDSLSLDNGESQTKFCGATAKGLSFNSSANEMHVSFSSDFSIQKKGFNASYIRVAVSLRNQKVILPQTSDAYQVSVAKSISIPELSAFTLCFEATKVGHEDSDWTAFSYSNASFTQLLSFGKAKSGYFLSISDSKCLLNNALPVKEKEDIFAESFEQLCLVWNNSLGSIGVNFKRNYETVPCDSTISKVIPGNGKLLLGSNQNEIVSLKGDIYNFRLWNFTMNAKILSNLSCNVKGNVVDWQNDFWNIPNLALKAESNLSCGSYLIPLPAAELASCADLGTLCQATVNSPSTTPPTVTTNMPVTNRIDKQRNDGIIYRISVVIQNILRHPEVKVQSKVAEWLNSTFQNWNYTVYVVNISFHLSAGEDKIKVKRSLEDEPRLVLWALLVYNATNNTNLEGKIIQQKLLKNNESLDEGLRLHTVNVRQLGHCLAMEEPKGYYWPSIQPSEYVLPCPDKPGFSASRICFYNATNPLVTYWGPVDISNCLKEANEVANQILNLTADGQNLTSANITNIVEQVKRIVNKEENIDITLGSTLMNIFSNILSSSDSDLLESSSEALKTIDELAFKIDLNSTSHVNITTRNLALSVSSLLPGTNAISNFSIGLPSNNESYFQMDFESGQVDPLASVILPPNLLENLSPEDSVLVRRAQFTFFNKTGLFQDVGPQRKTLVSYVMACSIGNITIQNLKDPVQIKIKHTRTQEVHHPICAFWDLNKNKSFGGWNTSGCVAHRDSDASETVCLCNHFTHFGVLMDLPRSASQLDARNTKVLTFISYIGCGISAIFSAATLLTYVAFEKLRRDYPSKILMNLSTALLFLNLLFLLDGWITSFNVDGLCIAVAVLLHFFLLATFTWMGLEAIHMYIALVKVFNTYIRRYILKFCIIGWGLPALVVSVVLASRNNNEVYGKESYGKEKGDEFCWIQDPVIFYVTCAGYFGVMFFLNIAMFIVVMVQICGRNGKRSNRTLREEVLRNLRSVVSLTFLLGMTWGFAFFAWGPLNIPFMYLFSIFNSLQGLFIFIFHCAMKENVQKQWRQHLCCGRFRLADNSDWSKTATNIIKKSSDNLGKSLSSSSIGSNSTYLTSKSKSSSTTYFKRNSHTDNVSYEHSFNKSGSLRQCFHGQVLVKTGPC
Sequence of UniProt O14842 (whole entry, looked up): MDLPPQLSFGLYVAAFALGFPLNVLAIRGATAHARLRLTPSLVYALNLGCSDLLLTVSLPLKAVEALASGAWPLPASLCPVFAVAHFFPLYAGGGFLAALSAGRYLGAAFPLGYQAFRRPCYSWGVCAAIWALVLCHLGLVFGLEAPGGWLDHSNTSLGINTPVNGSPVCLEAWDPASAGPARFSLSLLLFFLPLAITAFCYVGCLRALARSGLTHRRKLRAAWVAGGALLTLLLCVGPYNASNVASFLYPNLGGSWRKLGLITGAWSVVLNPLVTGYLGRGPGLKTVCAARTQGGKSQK
Sequence of UniProt Q9NR97 (whole entry, looked up): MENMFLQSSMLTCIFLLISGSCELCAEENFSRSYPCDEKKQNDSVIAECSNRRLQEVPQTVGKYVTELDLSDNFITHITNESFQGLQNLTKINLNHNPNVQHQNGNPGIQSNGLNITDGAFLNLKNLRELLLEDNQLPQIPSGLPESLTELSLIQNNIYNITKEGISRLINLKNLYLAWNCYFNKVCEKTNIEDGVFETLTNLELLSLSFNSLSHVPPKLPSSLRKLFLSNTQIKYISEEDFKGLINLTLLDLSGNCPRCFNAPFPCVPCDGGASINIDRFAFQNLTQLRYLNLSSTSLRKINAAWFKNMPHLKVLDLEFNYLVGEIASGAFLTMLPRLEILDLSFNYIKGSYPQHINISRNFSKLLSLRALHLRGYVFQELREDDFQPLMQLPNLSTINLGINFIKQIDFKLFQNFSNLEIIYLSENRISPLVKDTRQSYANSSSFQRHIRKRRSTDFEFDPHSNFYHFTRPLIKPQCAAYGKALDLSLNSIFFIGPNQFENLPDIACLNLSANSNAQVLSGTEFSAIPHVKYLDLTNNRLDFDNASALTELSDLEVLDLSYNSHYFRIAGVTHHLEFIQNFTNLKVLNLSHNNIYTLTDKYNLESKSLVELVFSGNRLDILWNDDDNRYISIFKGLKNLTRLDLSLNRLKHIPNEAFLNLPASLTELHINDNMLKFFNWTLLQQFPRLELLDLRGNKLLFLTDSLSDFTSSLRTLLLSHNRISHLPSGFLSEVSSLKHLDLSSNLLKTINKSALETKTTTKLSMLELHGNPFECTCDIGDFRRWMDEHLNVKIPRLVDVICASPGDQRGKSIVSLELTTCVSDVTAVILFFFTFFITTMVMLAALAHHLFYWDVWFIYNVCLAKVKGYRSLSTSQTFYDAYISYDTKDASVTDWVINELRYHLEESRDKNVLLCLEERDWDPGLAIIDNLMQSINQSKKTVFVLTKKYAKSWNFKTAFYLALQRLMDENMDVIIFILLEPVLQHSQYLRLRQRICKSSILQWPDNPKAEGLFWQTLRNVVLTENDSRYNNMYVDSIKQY
Sequence of UniProt P30411 (whole entry, looked up): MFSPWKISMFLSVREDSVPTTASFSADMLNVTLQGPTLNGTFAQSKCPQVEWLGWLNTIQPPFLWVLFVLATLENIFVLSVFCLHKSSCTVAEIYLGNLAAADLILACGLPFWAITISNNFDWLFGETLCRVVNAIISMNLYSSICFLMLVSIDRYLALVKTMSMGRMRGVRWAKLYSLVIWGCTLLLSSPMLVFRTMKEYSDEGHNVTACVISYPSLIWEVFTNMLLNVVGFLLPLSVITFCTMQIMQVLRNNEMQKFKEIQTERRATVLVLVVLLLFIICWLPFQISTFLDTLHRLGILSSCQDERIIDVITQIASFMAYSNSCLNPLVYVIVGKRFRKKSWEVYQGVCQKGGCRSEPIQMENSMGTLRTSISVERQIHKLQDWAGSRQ
Sequence of UniProt Q96RI1 (whole entry, looked up): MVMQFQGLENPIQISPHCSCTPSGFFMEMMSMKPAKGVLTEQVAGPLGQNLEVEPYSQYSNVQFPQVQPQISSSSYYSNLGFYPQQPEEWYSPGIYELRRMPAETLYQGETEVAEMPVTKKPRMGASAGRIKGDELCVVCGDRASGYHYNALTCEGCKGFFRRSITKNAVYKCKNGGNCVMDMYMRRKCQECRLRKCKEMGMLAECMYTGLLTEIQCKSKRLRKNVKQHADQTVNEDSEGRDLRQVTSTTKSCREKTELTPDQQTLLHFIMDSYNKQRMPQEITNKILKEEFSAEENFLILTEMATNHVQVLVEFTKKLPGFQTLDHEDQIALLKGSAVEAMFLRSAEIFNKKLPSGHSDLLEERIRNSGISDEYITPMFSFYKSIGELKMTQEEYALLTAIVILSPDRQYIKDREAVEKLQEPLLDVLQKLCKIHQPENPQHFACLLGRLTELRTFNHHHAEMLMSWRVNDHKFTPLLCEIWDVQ

SMILES | target | assay | test system | conditions | how to read | EC50 [nM]
CCCCCCCC/C=C\CCCCCCCC(=O)OC[C@H]1OCC=C[C@@H]1OP(=O)(O)S (some centres unmarked) | LPAR2 | G protein activation, agonist |  |  |  | 500
O=C(CSc1nc(-c2ccccc2)cc(C(F)(F)F)n1)Nc1ccccc1 | SCTR | increase of tracer binding, TR-FRET | HEK293 membranes | together with: Fluo-Sec 6 nM |  | 700 ± 700
CCCCOc1nc(N)c2[nH]c(=O)n(CCCN(CCCN3CCOCC3)Cc3cccc(CC(=O)OC)c3)c2n1 | TLR8 (Homo sapiens, UniProt Q9NR97) | reporter gene, agonist |  |  |  | > 10000
CC/C=C\C/C=C\C/C=C\CCCCCCCC(=O)O | FFAR1 (Homo sapiens, UniProt O14842) | inositol phosphate, agonist |  |  |  | 17000
CC(=O)[C@@]1(O)CC[C@H]2[C@@H]3CCC4=CC(=O)CC[C@]4(C)[C@H]3CC[C@@]21C | ADGRG6 (Homo sapiens, UniProt Q86SQ4) | cAMP, agonist, luciferase |  |  |  | 10
COc1cc(Cl)ccc1NC(=O)CCCS(=O)(=O)c1nc(-c2ccc(OC)c(OC)c2)cc(C(F)(F)F)n1 | SCTR | increase of tracer binding, TR-FRET | HEK293 membranes | together with: Fluo-Sec 6 nM |  | 3200 ± 2200
NCCCC[C@H](N)C(=O)N[C@@H](CCCN=C(N)N)C(=O)N1CCC[C@H]1C(=O)N1CCC[C@H]1C(=O)NCC(=O)N[C@@H](Cc1ccccc1)C(=O)N[C@@H](CO)C(=O)N1CCC[C@H]1C(=O)N[C@@H](Cc1ccccc1)C(=O)N[C@@H](CCCN=C(N)N)C(=O)O | BDKRB2 (Homo sapiens, UniProt P30411) | calcium signal, agonist, fluorescence |  |  |  | 0.78
CCCC[C@H](NC(=O)[C@H](Cc1ccccc1)NC(=O)[C@H](Cc1c[nH]cn1)NC(=O)CCNC(=O)[C@@H](NC(=O)[C@H](C)NC(=O)[C@H](Cc1c[nH]c2ccccc12)NC(=O)[C@H](CC(N)=O)NC(=O)[C@@H](Cc1ccc(O)cc1)NC(=O)[C@@H](CO)NC(=O)[C@H](CO)NC(=O)[C@H](N)CO)C(C)C)C(N)=O | NMBR | inositol phosphate generation, agonist | NCI-H1299 expressing human NMBR | 45 min, 37 °C | baseline: 1 µM neuromedin B | 3.16 ± 0.13
CCCCCCCC/C=C\CCCCCCCC(=O)O[C@H]1CCCO[C@@H]1COP(=O)(O)S (some centres unmarked) | LPAR2 | G protein activation, agonist |  |  |  | 1400
COc1ccc(-c2cc(C(F)(F)F)nc(SCC(=O)N(C)c3ccccc3)n2)cc1OC | SCTR | cAMP, agonist |  |  |  | 22000
CCCCc1oc2ccc(NS(C)(=O)=O)cc2c1C(=O)c1ccc(OCCCN(CCCC)CCCC)cc1 | Bile acid receptor (NR1H4, Homo sapiens, UniProt Q96RI1) | coactivator recruitment, agonist, TR-FRET |  |  |  | 26400
CN(CCc1ccc(O)c(Br)c1)CCc1nccs1 | HTR2C (Homo sapiens, UniProt P28335) |  |  |  |  | 2.75
COc1ccc(CNc2nc(-c3ccc(OC)c(OC)c3)cc(C(F)(F)F)n2)cc1 | SCTR | cAMP, agonist |  |  |  | 42000
CC(C)C[C@H](NC(=O)[C@H](CC(C)C)NC(=O)[C@H](Cc1c[nH]cn1)NC(=O)[C@@H](C)NC(=O)[C@@H](NC(=O)[C@H](C)NC(=O)[C@H](Cc1c[nH]c2ccccc12)NC(=O)[C@H](CCC(N)=O)NC(=O)[C@H](N)Cc1ccccc1)C(C)C)C(N)=O | NMBR | inositol phosphate generation, agonist | NCI-H1299 expressing human NMBR | 45 min, 37 °C | baseline: 1 µM neuromedin B | 398 ± 17

Excerpt of the above:
SMILES | target | assay | test system | conditions | how to read | EC50 [nM]
CCCC[C@H](NC(=O)[C@H](Cc1ccccc1)NC(=O)[C@H](Cc1c[nH]cn1)NC(=O)CCNC(=O)[C@@H](NC(=O)[C@H](C)NC(=O)[C@H](Cc1c[nH]c2ccccc12)NC(=O)[C@H](CC(N)=O)NC(=O)[C@@H](Cc1ccc(O)cc1)NC(=O)[C@@H](CO)NC(=O)[C@H](CO)NC(=O)[C@H](N)CO)C(C)C)C(N)=O | NMBR | inositol phosphate generation, agonist | NCI-H1299 expressing human NMBR | 45 min, 37 °C | baseline: 1 µM neuromedin B | 3.16 ± 0.13
CCCCc1oc2ccc(NS(C)(=O)=O)cc2c1C(=O)c1ccc(OCCCN(CCCC)CCCC)cc1 | Bile acid receptor (NR1H4, Homo sapiens, UniProt Q96RI1) | coactivator recruitment, agonist, TR-FRET |  |  |  | 26400
